Published values pooled from the literature.
Lines come from different studies, so protocols differ. Numbers after ± are the reported error. ≈ marks a conversion by molar mass, not a printed value.

CCCCCCCCCCCCCCCC(=O)N[C@@H](CCC(=O)NCCCC[C@H](NC(=O)[C@H](CC(=O)O)NC(=O)[C@H](CO)NC(=O)[C@@H](NC(=O)[C@H](Cc1ccccc1)NC(=O)[C@@H](NC(=O)CNC(=O)[C@H](CCC(N)=O)NC(=O)[C@H](C)NC(=O)[C@@H](Cc1ccc(O)cc1)NC(C)=O)[C@@H](C)O)[C@@H](C)O)C(=O)N[C@@H](CO)C(=O)N[C@@H](CCCCN)C(=O)N[C@@H](Cc1ccc(O)cc1)C(=O)N[C@@H](CC(C)C)C(=O)N[C@@H](CC(=O)O)C(=O)N[C@@H](CCC(=O)O)C(=O)N[C@@H](CCCNC(=N)N)C(=O)N[C@@H](C)C(=O)N[C@@H](C)C(=O)N[C@@H](CCC(N)=O)C(=O)N[C@@H](CC(=O)O)C(=O)N[C@@H](Cc1ccccc1)C(=O)N[C@H](C(=O)N[C@@H](CCC(N)=O)C(=O)N[C@@H](Cc1c[nH]c2ccccc12)C(=O)N[C@@H](CC(C)C)C(=O)N[C@@H](CC(C)C)C(=O)N[C@@H](CCC(=O)O)C(=O)NCC(=O)NCC(=O)N1CCC[C@H]1C(=O)N[C@@H](CO)C(=O)N[C@@H](CO)C(=O)NCC(=O)N[C@@H](C)C(=O)N1CCC[C@H]1C(=O)N1CCC[C@H]1C(=O)N1CCC[C@H]1C(=O)N[C@@H](CO)C(N)=O)C(C)C)C(=O)O  change in heart rate (12-lead ECG; human; multiple ascending doses, 10 weeks; reference: baseline): 7 to 16 beats/min
Cc1oc2nc1C(=O)N[C@](C)(C(=O)NCCc1ccccc1)c1nc(c(C)o1)C(=O)N[C@](C)(C(=O)NCCc1ccccc1)c1nc(c(C)o1)C(=O)N[C@]2(C)C(=O)NCCc1ccccc1  selectivity index (SARS-CoV-2; Vero E6, NRC-03-nhCoV; reference: CC50 over IC50): 22.6
CC[C@H](C)[C@H](NC(=O)[C@H](CO)NC(=O)[C@H](Cc1ccc(O)cc1)NC(=O)[C@H](CC(=O)O)NC(=O)[C@H](CO)NC(=O)[C@@H](NC(=O)[C@H](Cc1ccccc1)NC(=O)[C@@H](NC(=O)CNC(=O)[C@H](CCC(=O)O)NC(=O)[C@@H](C)NC(=O)[C@@H](N)Cc1ccc(O)cc1)[C@@H](C)O)[C@@H](C)CC)C(=O)N[C@@H](C)C(=O)N[C@@H](CCSC)C(=O)N[C@@H](CC(=O)O)C(=O)N[C@@H](CCCCN)C(=O)N[C@H](C(=O)N[C@@H](Cc1c[nH]cn1)C(=O)N[C@@H](CCC(N)=O)C(=O)N[C@@H](CCC(N)=O)C(=O)N[C@@H](CC(=O)O)C(=O)N[C@@H](Cc1ccccc1)C(=O)N[C@H](C(=O)N[C@@H](CC(N)=O)C(=O)N[C@@H](Cc1c[nH]c2ccccc12)C(=O)N[C@@H](CC(C)C)C(=O)N[C@@H](CC(C)C)C(=O)N[C@@H](C)C(=O)N[C@@H](CCC(N)=O)C(=O)N[C@@H](CCCCN)C(=O)N1CCC[C@H]1C(=O)N[C@@H](CO)C(=O)N[C@@H](CO)C(=O)NCC(=O)N[C@@H](C)C(=O)N1CCC[C@H]1C(=O)N1CCC[C@H]1C(=O)N1CCC[C@H]1C(=O)N[C@@H](CO)C(N)=O)C(C)C)[C@@H](C)CC  stability time (human plasma; 37 °C): ≥ 5 h
CC[C@H](C)[C@@H]1NC(=O)[C@@H](NC(=O)[C@H](CO)NC(=O)[C@@H](N)CCCNC(=N)N)CSSC[C@@H](C(=O)O)NC(=O)[C@H]([C@@H](C)O)NC(=O)CNC(=O)[C@@H]2CSSC[C@@H]3NC(=O)[C@H](CCC(N)=O)NC(=O)[C@H](Cc4ccccc4)NC(=O)[C@H](C)NC(=O)[C@H]([C@@H](C)O)NC(=O)[C@H](CSSC[C@H](NC(=O)[C@H](Cc4ccccc4)NC(=O)[C@H](CO)NC(=O)[C@H](CC(C)C)NC(=O)[C@H](CCCNC(=N)N)NC(=O)[C@H](Cc4ccc(O)cc4)NC(=O)[C@H](CCCCN)NC(=O)[C@H](CCSC)NC(=O)[C@H](CO)NC(=O)[C@H](Cc4cnc[nH]4)NC(=O)[C@H](CCCCN)NC3=O)C(=O)N[C@@H](CCCNC(=N)N)C(=O)N[C@@H](CCCCN)C(=O)N[C@@H]([C@@H](C)O)C(=O)N2)NC(=O)[C@H](CCCNC(=N)N)NC(=O)[C@H](CO)NC(=O)[C@H](CCCCN)NC(=O)[C@@H]2CCCN2C(=O)[C@H]([C@@H](C)CC)NC(=O)[C@H]([C@@H](C)O)NC(=O)[C@H](CC(=O)O)NC1=O  half-life (chemical stability; pig, simulated intestinal fluid): 48 min
C[C@@H]1CCCN1CCc1cc2cc(-c3ccc(C#N)cc3)ccc2o1  CC50 (J774A.1; alamarBlue): 68.5 ± 13.3 µM
CCCCCCCCCCCCCCCC(=O)N[C@@H](CCC(=O)NCCOCCOCCC(=O)NCCOCCOCCC(=O)NCCCC[C@H](NC(=O)[C@H](CC(=O)O)NC(=O)[C@H](CC(C)C)NC(=O)[C@H](Cc1ccc(O)cc1)NC(=O)[C@H](CCCCN)NC(=O)[C@H](CO)NC(=O)[C@H](Cc1ccc(O)cc1)NC(=O)[C@H](CC(=O)O)NC(=O)[C@H](CO)NC(=O)[C@@H](NC(=O)[C@H](Cc1ccccc1)NC(=O)[C@@H](NC(=O)CNC(=O)[C@H](CCC(N)=O)NC(=O)[C@@H](CO)NC(=O)[C@@H](N)Cc1c[nH]cn1)[C@@H](C)O)[C@@H](C)O)C(=O)N[C@@H](CCCNC(=N)N)C(=O)N[C@@H](CCCNC(=N)N)C(=O)N[C@@H](C)C(=O)N[C@@H](CCC(N)=O)C(=O)N[C@@H](CC(=O)O)C(=O)N[C@@H](Cc1ccccc1)C(=O)N[C@H](C(=O)N[C@@H](CCC(N)=O)C(=O)N[C@@H](Cc1c[nH]c2ccccc12)C(=O)N[C@@H](CC(C)C)C(=O)N[C@@H](CC(C)C)C(=O)N[C@@H](CC(N)=O)C(=O)N[C@H](C(=O)NCC(=O)NCC(=O)N1CCC[C@H]1C(=O)N[C@@H](CO)C(=O)N[C@@H](CO)C(=O)NCC(=O)N[C@@H](C)C(=O)N1CCC[C@H]1C(=O)N1CCC[C@H]1C(=O)N1CCC[C@H]1C(=O)N[C@@H](CO)C(N)=O)[C@@H](C)O)C(C)C)C(=O)O  AUC(0-t) (rhesus monkey, male, plasma; subcutaneous, 20 µg/kg, day 28, toxicokinetics, mean): 93.9 ng·h/mL
Cc1cc(/C=C/C#N)cc(C)c1-n1cnc2cnc(Nc3ccc(C#N)cc3)nc21  EC50 (HIV-1; viral replication, single-round infection; RT mutant V106A/G190A/F227L): 2.2 ± 1.2 nM
CC[C@H](C)C(=O)N1CCC(NC(=O)Nc2ccc(OC(F)(F)F)c(F)c2)CC1  subjects with COVID-19 TEAE (healthy volunteers; oral, 24 mg single dose): 16.7%
CC[C@H](C)[C@H](NC(C)=O)C(=O)N[C@@H](CO)C(=O)N[C@@H](CC(C)C)C(=O)N[C@@H](CCC(=O)O)C(=O)N[C@@H](CCCNC(=N)N)C(=O)N[C@@H](CC(C)C)C(=O)N[C@@H](CC(=O)O)C(=O)N[C@H](C(=O)NCC(=O)N[C@H](C(=O)N[C@@H](CC(N)=O)C(=O)N[C@@H](CC(C)C)C(=O)NCC(=O)N[C@@H](CC(N)=O)C(=O)N[C@@H](C)C(=O)N[C@H](C(=O)N[C@@H](C)C(=O)N[C@@H](CCCCN)C(=O)N[C@@H](CC(C)C)C(=O)N[C@@H](CCC(=O)O)C(=O)N[C@@H](CC(=O)O)C(=O)N[C@@H](C)C(=O)N[C@@H](CCCCN)C(=O)N[C@@H](CCC(=O)O)C(=O)N[C@@H](CC(C)C)C(=O)N[C@@H](CC(C)C)C(=O)N[C@@H](CCC(=O)O)C(=O)N[C@@H](CO)C(=O)N[C@@H](CO)C(=O)N[C@@H](CC(=O)O)C(=O)N[C@@H](CCC(N)=O)C(=O)N[C@H](C(=O)N[C@@H](CC(C)C)C(=O)N[C@@H](CCCNC(=N)N)C(=O)N[C@@H](CO)C(N)=O)[C@@H](C)CC)[C@@H](C)CC)[C@@H](C)O)C(C)C  CC50 (B95a; MTT; 8 days, 37 °C): > 10 µM
CC[C@H](C)[C@H](NC(=O)[C@H](CC(C)C)NC(=O)[C@H](Cc1c[nH]c2ccccc12)NC(=O)[C@H](CCC(N)=O)NC(=O)[C@@H](NC(=O)[C@H](Cc1ccccc1)NC(=O)[C@H](C)NC(=O)[C@H](CCCCNC(=O)COCCOCCNC(=O)COCCOCCNC(=O)CC[C@H](NC(=O)CCCCCCCCCCCCCCCCCCC(=O)O)C(=O)O)NC(=O)[C@H](CCC(N)=O)NC(=O)[C@H](C)NC(=O)[C@@H](NC(=O)[C@H](CCCCN)NC(=O)[C@H](CC(=O)O)NC(=O)[C@H](CC(C)C)NC(=O)C(C)(C)NC(=O)[C@@H](NC(=O)[C@H](CO)NC(=O)[C@H](Cc1ccc(O)cc1)NC(=O)[C@H](CC(=O)O)NC(=O)[C@H](CO)NC(=O)[C@@H](NC(=O)[C@H](Cc1ccccc1)NC(=O)[C@@H](NC(=O)CNC(=O)[C@H](CCC(=O)O)NC(=O)C(C)(C)NC(=O)[C@@H](N)Cc1ccc(O)cc1)[C@@H](C)O)[C@@H](C)O)[C@@H](C)CC)[C@@H](C)CC)C(C)C)C(=O)N[C@@H](C)C(=O)NCC(=O)NCC(=O)N1CCC[C@H]1C(=O)N[C@@H](CO)C(=O)N[C@@H](CO)C(=O)NCC(=O)N[C@@H](C)C(=O)N1CCC[C@H]1C(=O)N1CCC[C@H]1C(=O)N1CCC[C@H]1C(=O)N[C@@H](CO)C(N)=O  AST (DIO male Wistar rats, serum; dose not given, 10 weeks, fasted): 96 ± 9 U/L
CC[C@H](C)[C@H](NC(=O)[C@H](CCCCN)NC(=O)[C@H](CCCCN)NC(=O)[C@H](CC(C)C)NC(=O)[C@H](Cc1c[nH]c2ccccc12)NC(=O)CN)C(=O)NCC(=O)N[C@@H](CCCCN)C(=O)N[C@@H](CCCCN)C(=O)N[C@H](C(=O)N[C@@H](CCC(=O)O)C(=O)N[C@@H](CCCNC(=N)N)C(=O)N[C@H](C(=O)NCC(=O)N[C@@H](CCC(N)=O)C(=O)N[C@@H](Cc1c[nH]cn1)C(=O)N[C@H](C(=O)N[C@@H](CCCNC(=N)N)C(=O)N[C@@H](CC(=O)O)C(=O)N[C@@H](C)C(=O)N[C@H](C(=O)N[C@H](C(=O)N[C@@H](CCC(N)=O)C(=O)N[C@H](C(=O)N[C@H](C(=O)NCC(=O)N[C@H](C(=O)N[C@@H](C)C(=O)N[C@@H](CCC(N)=O)C(=O)N[C@@H](CCC(N)=O)C(=O)N[C@@H](C)C(=O)N[C@@H](C)C(=O)N[C@@H](CC(N)=O)C(=O)N[C@H](C(=O)N[C@@H](C)C(=O)N[C@@H](C)C(=O)N[C@H](C(=O)N[C@@H](CC(C)C)C(=O)N[C@@H](CCCCN)C(N)=O)[C@@H](C)O)C(C)C)C(C)C)[C@@H](C)CC)[C@@H](C)O)[C@@H](C)CC)[C@@H](C)O)[C@@H](C)O)C(C)C)[C@@H](C)CC  MIC (Pseudomonas aeruginosa; broth microdilution; RKI 93/12, CAMHB with 10% mouse serum): 256 mg/L (≈ 61 µM)
CC[C@H](C)[C@H](NC(=O)[C@H](CCCN)NC(=O)[C@H](CC(=O)O)NC(=O)[C@H](CC(C)C)NC(=O)C(C)(CC(C)C)NC(=O)[C@@H](NC(=O)[C@H](CO)NC(=O)[C@H](Cc1ccc(O)cc1)NC(=O)[C@H](CC(=O)O)NC(=O)[C@H](CO)NC(=O)[C@@H](NC(=O)[C@H](Cc1ccccc1)NC(=O)[C@@H](NC(=O)CNC(=O)[C@H](CCC(=O)O)NC(=O)C(C)(C)NC(=O)[C@@H](N)Cc1ccc(O)cc1)[C@@H](C)O)[C@@H](C)CC)[C@@H](C)CC)C(=O)N[C@@H](Cc1c[nH]cn1)C(=O)N[C@@H](CCC(N)=O)C(=O)NC(C)(C)C(=O)N[C@@H](CC(=O)O)C(=O)N[C@@H](Cc1ccccc1)C(=O)N[C@H](C(=O)N[C@@H](CCC(=O)O)C(=O)N[C@@H](Cc1ccc(O)cc1)C(=O)N[C@@H](CCCCNC(=O)COCCOCCNC(=O)COCCOCCNC(=O)CC[C@H](NC(=O)CCCCCCCCCCCCCCCCCCC(=O)O)C(=O)O)C(=O)N[C@@H](CC(C)C)C(=O)N[C@@H](CCC(=O)O)C(=O)NCC(=O)NCC(=O)N1CCC[C@H]1C(=O)N[C@@H](CO)C(=O)N[C@@H](CO)C(=O)NCC(=O)N[C@@H](C)C(=O)N1CCC[C@H]1C(=O)N1CCC[C@H]1C(=O)N1CCC[C@H]1C(=O)N[C@@H](CO)C(N)=O)C(C)C (stereo partly drawn)  Vz/F (human, type 2 diabetes; subcutaneous, 25 mg single dose, geometric mean): 8.79 L

A few entries again:
Cc1oc2nc1C(=O)N[C@](C)(C(=O)NCCc1ccccc1)c1nc(c(C)o1)C(=O)N[C@](C)(C(=O)NCCc1ccccc1)c1nc(c(C)o1)C(=O)N[C@]2(C)C(=O)NCCc1ccccc1  selectivity index (SARS-CoV-2; Vero E6, NRC-03-nhCoV; reference: CC50 over IC50): 22.6
